Experimental data pooled from the literature.
Compare with care: the assays were run in different laboratories. “And” joins repeats or separate records; there may be more than shown. ± marks the error that the study gave.
UCHL1: Ubiquitin carboxyl-terminal hydrolase isozyme L1 (UCHL1, Homo sapiens, UniProt P09936)
Sequence of UniProt P09936 (whole entry, looked up): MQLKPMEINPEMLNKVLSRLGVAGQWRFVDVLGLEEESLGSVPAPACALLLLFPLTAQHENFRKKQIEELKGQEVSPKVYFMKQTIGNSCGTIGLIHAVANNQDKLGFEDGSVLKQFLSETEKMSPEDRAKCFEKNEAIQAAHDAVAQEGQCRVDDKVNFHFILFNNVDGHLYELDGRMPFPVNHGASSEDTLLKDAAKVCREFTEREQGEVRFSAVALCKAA

Structure (SMILES)	tested on	assay	system	conditions	scale	quantity	value
Cc1ccc(C(=O)N(CCCN)C(c2nc3snc(C)c3c(=O)n2Cc2ccccc2)C(C)C)cc1 (stereo not shown)	–	pneumonia grade ≥3 (CTCAE)	human patients	intravenous, 2 mg/day	–	patients with adverse event	17%
O=C(Nc1nc2cccc(-c3ccc(CN4CCS(=O)(=O)CC4)cc3)n2n1)C1CC1	–	measured: immune system disorders	human rheumatoid arthritis patients	oral, 200 mg once daily, 4 weeks, regardless of relatedness	–	treatment-emergent adverse events	0%
N#Cc1ccc2c(c1)[C@H]1CCCN(C(=O)c3ccc4[nH]cnc4c3)[C@H]1C2	–	–	human	80 mg, day 15	–	maximum ACTH level	17.8 pmol/L
CNC(=O)c1ccc(-c2cnc3ncc(Cc4ccc5ncccc5c4)n3n2)cc1F	–	ultrafiltration	human, plasma	oral, 200 mg, 3 h post-dose, mean	–	unbound fraction	0.0335
COc1ccc([C@@H](O)c2cc(-c3ncnc4cc(N5CCOCC5)ccc34)c(F)cc2Cl)nn1	–	–	locally advanced rectal cancer patients	50 mg, added: capecitabine and radiotherapy	–	metabolism nutrition disorder TEAE	0%
C=CC(=O)NC1CCN(c2ncc3ncnc(Nc4ccc(Oc5ccc6c(c5)ncn6C)c(C)c4)c3n2)CC1	–	–	male beagle dog, plasma	oral, 3 mg/kg, high vs low gastric pH, added: pentagastrin or famotidine pretreatment	–	Cmax reduction	~94%
O=C(COC(=O)c1n[nH]c2ccccc12)Nc1ccc(N2CCCCC2)cc1	–	–	sheep erythrocytes	1 h, pH 7.5	–	maximum haemolysis	16.5%
Cc1c(-c2ccc(N3CCc4cccc(C(=O)Nc5nc6ccccc6s5)c4C3)nc2C(=O)O)cnn1CC12CC3(C)CC(C)(C1)CC(OCCNCC[C@H](O)CO)(C3)C2	–	–	beagle dog, male, anaesthetised	intravenous infusion, 0.3 mg/kg/min, 120 min	relative to: vehicle	QTcV interval change	15 ms
Cn1cc(-c2cn3nccc3c(-c3cnn([C@]4(CC#N)C[C@@H](C#N)C4)c3)n2)cn1	–	–	healthy human	400 mg once daily	–	mean residence time	8 h
COc1cc2[nH]c(C)c(-c3c(C)noc3C)c(=O)c2cc1Cl	–	–	PAMPA	pH 7.4	–	Papp	24 ×10⁻⁶ cm/s
CC(C)[C@@H](CS(=O)(=O)C(C)C)N1C(=O)[C@@](C)(CC(=O)O)C[C@H](c2cccc(Cl)c2)[C@H]1c1ccc(Cl)cc1	–	–	FVB mice Abcb1a/b Abcg2 knockout, spinal cord	oral, 20 mg/kg	–	AUC(0-inf)	2290 ± 242 ng·h/mL
Cc1ccc([C@@H]2O[C@H](CO)[C@@H](O)[C@H](O)[C@H]2O)cc1Cc1ccc(-c2ccc(F)cc2)s1	–	measured: inorganic phosphorus	Japanese type 2 diabetes patients	400 mg, day 4, 24 h urine collection	relative to: baseline	urinary phosphate excretion change	170 mg
Cc1c2oc3c(C)ccc(C(=O)N[C@@H]4C(=O)N[C@H](C(C)C)C(=O)N5CCC[C@H]5C(=O)N(C)CC(=O)N(C)[C@@H](C(C)C)C(=O)O[C@@H]4C)c3nc-2c(C(=O)N[C@@H]2C(=O)N[C@H](C(C)C)C(=O)N3CCC[C@H]3C(=O)N(C)CC(=O)N(C)[C@@H](C(C)C)C(=O)O[C@@H]2C)c(N)c1=O	–	LC-MS	children with cancer, plasma	dose not given, 22 h	–	maximum plasma concentration	4 µg/L
CCCC1CCC(c2ccc(OCC)c(F)c2F)CC1 (stereo not shown)	–	–	human mother-newborn pairs, female fetuses, cord serum	–	–	mean serum concentration	0.43 ng/mL
NC1(C(=O)N[C@@H](CCO)c2ccc(Cl)cc2)CCN(c2nc[nH]c3nccc2-3)CC1	–	–	metastatic CRPC patients	480 mg b.i.d., grade 3 to 4, treatment-related, added: enzalutamide 160 mg daily	–	incidence of Diarrhoea	20%
CC/C(=C(\c1ccccc1)c1ccc(OCCN(C)C)cc1)c1ccccc1	–	–	male Hartley guinea pigs, anaesthetized	intravenous, 30 mg/kg over 10 min, after infusion	–	mean blood pressure	28 ± 0.4 mmHg
O=C(O)CNC(=O)c1ncc(-c2cccc(Cl)c2)cc1O	–	–	–	–	–	pKa (basic)	< 2
Cc1c(Br)cc(NC(=O)NS(=O)(=O)O)cc1Br	–	–	CD-1 mice, whole blood	intravenous, 2 mg/kg	–	C0	13.4 µM
C[C@@H](N)C1CCN(S(=O)(=O)c2cccc3cnccc23)CC1	–	–	healthy volunteers	150 mg, fasted	–	participants with headache	0%
CCC(CC)C(=O)Oc1cccc(C(O)CCN)c1.O=CO (stereo not shown)	–	scotopic ERG	BALB/cJ mice	intraperitoneal, 10 mg/kg, 1 h dark adaptation, added: 10,000 lx photobleach, 10 min	–	ERG b-wave amplitude	12 µV and 37 µV and 21 µV and 63 µV and 31 µV
Cc1cc(-c2nccc3c2ccn3CC(=O)Nc2ccc(-c3cnccn3)cn2)ccn1	–	–	human	15 mg once daily, multiple ascending dose	–	subjects with blurred vision	0%

Structure (SMILES)	tested on	assay	system	conditions	scale	quantity	value
CCCCCCOC(=O)NC(=N)c1ccc(NCc2nc3cc(C(=O)N(CCC(=O)OCC)c4ccccn4)ccc3n2C)cc1	–	–	human	oral, 75 mg, compound alone	–	participants with TEAE oropharyngeal pain	0%
C=CC(=O)N(C)CCOc1c(N)ncnc1-c1cc(F)cc(NC(=O)c2ccc(C3CC3)cc2F)c1C	–	–	human	oral, 50 mg, day 3, geometric mean, given alone	–	Cmax per dose	2.45 ng/mL/mg
C=CC(=O)N1CCC[C@@H](n2c(=O)n(-c3ccc(Oc4ccccc4)cc3)c3c(N)nccc32)C1	–	–	human	oral, 300 mg	relative to: fed over fasted	AUC(0-last) fed/fasted ratio	1.12
O=C(Nc1cnccc1Cl)N1CCN(Cc2ccc3c(c2)OC(F)(F)O3)CC1	–	–	elderly men and women, plasma	oral, 100 mg once daily, day 10, dosing interval 24 h	–	AUC(0-tau)	9370 ng·h/mL
CN[C@H]1C(=O)N[C@@H]2Cc3ccc(cc3)Oc3cc4cc(c3O[C@@H]3O[C@H](C(=O)O)[C@@H](O)[C@H](O)[C@H]3NC(=O)CCCCCCCCC(C)C)Oc3ccc(cc3Cl)[C@@H](O)[C@@H]3NC(=O)[C@H](NC(=O)[C@@H]4NC(=O)[C@@H](NC2=O)c2cc(cc(O)c2Cl)Oc2cc1ccc2O)c1ccc(O)c(c1)-c1c(O[C@H]2O[C@H](CO)[C@@H](O)[C@H](O)[C@@H]2O)cc(O)cc1[C@@H](C(=O)NCCCN(C)C)NC3=O	–	population PK model	paediatric patients	reference weight 70 kg	–	intercompartmental clearance	0.794 L/h
COc1cc2c3c(n(CCCN4CCOCC4)c(=O)c2cc1OC)-c1cc2c(cc1C3=O)OCO2	–	–	beagle dog, male, plasma	intravenous infusion, 50 mg/m^2, 1 h infusion, vehicle 1	–	CL	41.1 ± 25 L/h/m²
C[C@@H]1COCCN1c1cc(C2([S@](C)(=N)=O)CC2)nc(-c2cc[nH]c3nccc2-3)n1	–	–	Japanese advanced solid tumour patients	oral, 160 mg twice daily, any grade	–	Anemia incidence	66.7%
CNc1ccc(-c2nc3ccc(O)cc3s2)cc1 [carbon-11 labelled]	–	microPET/CT imaging	APP/PS1 mouse, AD model, heart	intravenous, 20 min	–	SUV	0.637 ± 0.388
CNC(=O)c1ccc(-c2cnc3ncc(Cc4ccc5ncccc5c4)n3n2)cc1F	–	–	Japanese patients	oral, 400 mg, any grade	–	Vomiting treatment discontinuation	1%
Br.CCCCCCn1c2c(c(=N)c3c1CCC3)CCC2	Trypanosoma cruzi	reporter translation, Renilla luciferase mRNA translation	cell-free extract	40 µM	relative to: DMSO	inhibition	9%
C#Cc1cccc(Nc2ncnc3cc(OCCOC)c(OCCOC)cc23)c1	–	UPLC-MS/MS	Wistar rat, male, plasma	oral, four weeks, added: CA 1000 mg/kg, high dose	relative to: control	CL/F decrease	31%
CNC(=O)c1ccc(-c2cnc3ncc(Cc4ccc5ncccc5c4)n3n2)cc1F	–	CTCAE v4.0, any causality	human cancer patients	oral, 600 mg twice daily, expansion, other tumours, RP2D	–	bilirubin increase incidence (all grades)	6%
Cn1c(C(F)(F)F)cc(=O)n(-c2cc(Oc3cccnc3OCC(=O)O)c(Cl)cc2F)c1=O	–	–	beagle dog, female, plasma	oral capsule, 300 mg/kg/day epyrifenacil, day 1, 90-day study	–	Cmax	7300 ng/mL
N#CC(=Cc1cc(F)ccc1F)C(=O)Nc1cc(Cl)ccc1Cl	UCHL1	covalent, intact protein LC-MS	–	12.5 µM	–	labelling	17.2%
CCCCCCCOc1ccc(CCC(N)(CO)CO)cc1C(F)(F)F.Cl	–	–	healthy men, plasma	oral, 0.125 mg, day 1	–	AUC(0-tau)	0.525 ng·h/mL
COc1cc2[nH]c(C)c(-c3c(C)cc(C)cc3C)c(=O)c2cc1Cl	–	–	PAMPA	pH 7.4	–	Papp	406 ×10⁻⁶ cm/s
NC(=O)CCc1ccc(C(=O)CCl)cc1	UCHL1	covalent, intact protein LC-MS	–	12.5 µM	–	labelling	12.6%
COCc1cc(C(=O)Nc2cc([C@H]3CC[C@@H](OC(=O)NC(C)C)C3)[nH]n2)n(C)n1	–	–	OVCAR-3 xenograft, NOD/SCID gamma mice, plasma	oral, 75 twice daily, tumour growth inhibition study	–	unbound Cmax	1.68 µM
Cl.[2H]C([2H])([2H])CC(=O)c1cnc(NC(=O)C2CC2)cc1Nc1cccc(-c2ncn(C([2H])([2H])[2H])n2)c1OC	–	geometric mean	human	oral, 17.5 mg single dose, fasted, liquid	–	half-life	7.85 h
C[C@H]1Oc2cc(cnc2N)-c2c(nn(C)c2C#N)CN(C)C(=O)c2ccc(F)cc21	–	–	human patients, plasma	oral, cycle 2 day 1, median, added: avelumab	–	Tlast	24 h
FC(F)(F)c1ccc(CNc2ccc(Cc3c[nH]c4ncc(Cl)cc34)cn2)cn1	–	measured: Constipation	patients with advanced solid tumours	oral, dose not given, grade 1 and 2, possibly related to drug	–	adverse event incidence	11%

Structure (SMILES)	tested on	assay	system	conditions	scale	quantity	value
C[C@@H]1CN(c2c(F)c(N)c3c(=O)c(C(=O)O)cn(C4CC4)c3c2F)C[C@H](C)N1	–	–	male Hartley guinea pigs, anaesthetized	intravenous, 3 mg/kg group, baseline before infusion	–	mean blood pressure	34 ± 0.2 mmHg
Cn1cc(Nc2nccc(-c3ccc4c(c3)CN(C3COC3)CC[C@H]4NC(=O)c3cn(C(C)(C)C)nn3)n2)cn1	–	–	human, whole blood	50 mg twice daily, day 14	relative to: pre-dose baseline	CD8+ T cell count change	-0.89%
CCN1CCN(Cc2ccc(NC(=O)c3ccc(C)c(NC(=O)c4cncc(-c5cccs5)c4)c3)cc2C(F)(F)F)CC1	–	LC-MS/MS	C57BL/6 mouse, plasma	intraperitoneal, 30 mg/kg single dose, 0.25 h	–	mean plasma concentration	680 ng/mL
O=C(O)c1cccnc1Nc1cccc(C(F)(F)F)c1	–	–	–	–	–	pKa (basic)	2.2
Cc1nc2cccc(OCC(C)(C)C(=O)NC(C)C)c2c(N)c1C(=O)O	–	–	Sprague-Dawley rat, male, plasma	oral, 10 mg/kg, day 7 over day 1, 7-day repeated dosing	relative to: day 7 over day 1	Cmax ratio	1.26 ± 0.42
CN(C)CCc1c[nH]c2ccc(C[C@H]3COC(=O)N3)cc12	–	–	EpiIntestinal microtissues	5 µM, 2 h, pH 6.5, basolateral pH 7.4	–	Papp apical to basolateral	1.53 ×10⁻⁶ cm/s
CC(=O)Oc1ccccc1C(=O)O	–	–	male Hartley guinea pigs, anaesthetized	intravenous, 1 mg/kg over 10 min, after infusion	–	mean blood pressure	36 ± 0.1 mmHg
O=C1CCc2ccc(OCCCCN3CCN(c4cccc(Cl)c4Cl)CC3)cc2N1	–	measured: Hypertension	genotyped patients, CYP2D6 ultrarapid metabolizers	dose not given, long-acting oral or depot	–	adverse event incidence	22%
O=C(c1cc(Cc2n[nH]c(=O)c3ccccc23)ccc1F)N1CCN(C(=O)C2CC2)CC1	–	HPLC-MS/MS	human patients, plasma	oral, 25 mg tablets, cycle 1 day 0, mean, dose level -1	–	AUC(0-12 h)	4310 ng·h/mL
O=C(O)CSc1nnc(Br)n1-c1ccc(C2CC2)c2ccccc12	–	–	KM mouse, chronic hyperuricaemia model	dose not given, day 5	–	body weight	24.3 g and 29.1 g and 30.9 g and 28.3 g and 27.9 g and 24.1 g
FC(F)(F)c1ccc(CNc2ccc(Cc3c[nH]c4ncc(Cl)cc34)cn2)cn1	–	measured: peripheral oedema	human, advanced solid tumours, non-TGCT cohort	oral, 1000 mg/day, grade 3 or higher	–	treatment-related adverse events	0%
NC[C@@H]1O[C@H](O[C@H]2[C@@H](O)[C@H](O[C@@H]3[C@@H](O)[C@H](N)C[C@H](N)[C@H]3O[C@H]3O[C@H](CO)[C@@H](O)[C@H](O)[C@H]3N)O[C@@H]2CO)[C@H](N)[C@@H](O)[C@@H]1O	–	–	NSG mice	dose not given, day 3 of treatment	–	body weight	23.4 g and 22.3 g and 22.9 g and 20.7 g and 23.8 g and 21.2 g
CNCc1ccc(-c2[nH]c3cc(F)cc4c3c2CCNC4=O)cc1	–	–	patients	oral, 600 mg twice daily, grade 2	–	constipation incidence	0%
CCN1/C(=C/C(C)=O)Sc2ccc(F)cc21	–	–	cynomolgus monkey	oral, 10 mg/kg, 2 h post-dose	–	QTc interval (Bazett)	326 ± 15 ms
C=CC(=O)N1CCC(c2ccc(C(N)=O)c(-c3ccc(Oc4ccccc4)cc3)n2)CC1	–	serious adverse event Asthenia	patients with relapsed/refractory MCL	oral	–	incidence	0.9%
CC(C)(C(=O)N1CCOc2c(C#N)cncc2C1)C(F)F	–	measured: general and administration site disorders	human, both sexes	oral, 10 mg once daily, 14 days, multiple ascending dose	–	subjects with TEAE	0%
C=CC(=O)Nc1cc(Nc2nccc(Nc3cc(Cl)c(F)cc3C(C)(C)O)n2)c(OC)cc1N1CC[C@@H](N(C)C)C1	–	two-compartment PK model	mouse	dose not given	–	central volume of distribution	2.2 L
O=C(O)CCCOc1ccc([18F])cc1-c1cc(-c2ccccc2C(F)(F)F)n(-c2ccccc2)n1	–	gamma counting	male ddY mice, spleen	intravenous, 2.1 MBq, 15 min	–	radioactivity uptake	0.2 ± 0.05 SUV
Cc1cc(Nc2cc3ncccc3c(N[C@@H]3C[C@H]4CC[C@@H](C3)N4CCC#N)n2)n[nH]1	–	–	healthy human subjects	oral, 100 mg, 14 days, multiple ascending dose	–	papular rash incidence	17%
